{"data": "Published values of several laboratories", "note": "Each numbered part is a random draw from the data of one study; scales do not carry over between parts.", "UniProt P41240, sequence (whole entry, looked up)": "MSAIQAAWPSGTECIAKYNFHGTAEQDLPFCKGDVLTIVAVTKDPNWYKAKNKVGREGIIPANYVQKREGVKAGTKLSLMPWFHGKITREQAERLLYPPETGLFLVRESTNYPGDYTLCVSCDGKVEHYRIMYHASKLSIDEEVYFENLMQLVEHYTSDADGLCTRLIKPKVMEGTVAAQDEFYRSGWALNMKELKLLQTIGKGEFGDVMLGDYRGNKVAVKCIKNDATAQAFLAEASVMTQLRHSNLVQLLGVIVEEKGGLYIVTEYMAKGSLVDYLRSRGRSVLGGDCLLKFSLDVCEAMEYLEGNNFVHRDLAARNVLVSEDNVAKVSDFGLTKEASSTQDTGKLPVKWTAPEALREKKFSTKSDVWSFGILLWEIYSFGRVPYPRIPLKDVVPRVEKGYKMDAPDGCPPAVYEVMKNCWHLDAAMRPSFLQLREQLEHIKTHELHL"}
{"data": "Series 1", "target": "human cyclin B1", "effect on": "peptide binding", "technique": "yeast competitive growth sequencing", "molecule type": "peptide", "organism": "Saccharomyces cerevisiae", "strain": "cyclin B1-Cln2 fusion", "tested at": "concentration not given", "notes": "peptide tiling library", "direction": "direction not given"}
{"Sequence": "VRDLSYRLVFLACCVA", "binding enrichment score": -0.351}
{"Sequence": "RRVLCFDS", "binding enrichment score": 0.112}
{"Sequence": "KPHVSDEEEEEPPFYH", "binding enrichment score": 0.479}
{"Sequence": "PAKRRLELGE", "binding enrichment score": -0.0285}
{"Sequence": "GAEELEDLVHFSVSEL", "binding enrichment score": 1}
{"Sequence": "RNRGPKLNAMLRLGVL", "binding enrichment score": -0.559}
{"Sequence": "ESSQLTVQAEFDMSAI", "binding enrichment score": 0.233}
{"Sequence": "DGCSPIKNWSPMRL", "binding enrichment score": -0.382}
{"data": "Series 2", "target": "RING finger protein unkempt homolog, zinc fingers 1-6, GST-SBP tag (UNK, Homo sapiens, UniProt Q9C0B0, residues 30-357)", "technique": "RNA Bind-n-Seq", "molecule type": "RNA", "sample": "in vitro", "tested at": "not given", "notes": "RNA with constant flanks, human and mouse sites, ends assumed", "relative to": "input RNA pool", "direction": "higher = stronger binding", "all sequences stand within": "GGGAGUUCUACAGUCCGACGAUC … CAACAGAGGAUUGAGCAUCA", "Construct (chain)": "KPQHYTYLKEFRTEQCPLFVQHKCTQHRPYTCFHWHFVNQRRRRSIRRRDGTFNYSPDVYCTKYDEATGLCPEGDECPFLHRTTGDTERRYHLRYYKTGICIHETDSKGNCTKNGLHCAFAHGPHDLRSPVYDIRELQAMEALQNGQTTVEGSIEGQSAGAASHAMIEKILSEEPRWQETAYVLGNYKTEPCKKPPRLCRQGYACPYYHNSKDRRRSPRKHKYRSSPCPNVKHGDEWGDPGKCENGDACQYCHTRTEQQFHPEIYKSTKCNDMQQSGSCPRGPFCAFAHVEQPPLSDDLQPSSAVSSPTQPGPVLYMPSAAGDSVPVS"}
{"Strand": "CCUGAUACUUUGGAUCCAGCACUGAUGAGGCCAGGGAGAUUGGAUAGAAAAAUUGAAUUUAGCUUGCCCGAUCUAGAGGGUCGGACCCACAUAUUUAAGAUUCACGCUCGUUCAAUGAGU", "bound/input enrichment [ratio]": 2.11}
{"Strand": "GUCAUAGUUUUUUUUAUGACUACUUCUAGUGUAUAUUCUAAUUUCUUUUCUAGGCCUGAAUGUAUCUUUAUUUUCAUGUUAUAGGACAAUAUUAAGGCAUUUUAAAGGUCAUCAUCCUUU", "bound/input enrichment [ratio]": 44.2}
{"Strand": "CGAAGACGACGAGAAGAUGACAGGAUCUCAAGACCUCAUCCUUCAACAGCUGAAUCAAAGGCUCCAACACCAAAGUUUGACUUAUUAGCCUCAAAUUUUCCACCUUUACCUGGAAGUUCA", "bound/input enrichment [ratio]": 0.172}
{"Strand": "UGUUAUAUCACACCAAAGAGACCUCGAUCUUCUGCUAAAGAGUCACAUUACAAAUCUGCUGUUAGCAAGGACUUUCUCACUGAAGGAAAGGCAUCUGAUAGAACUAGCAGACAGCUGUUA", "bound/input enrichment [ratio]": 0.0964}
{"Strand": "CUGAAGGAAACAGCAUUUAAAUUUAAAGCCCUGAAGAAGGUUGCACAGUUGGCAGUUAUAAAUAGCCUAGAAAAGGCUUUUUGGAACUGGGUAGAAAAUUAUCCGGAUGAAUUUACAAAG", "bound/input enrichment [ratio]": 0.34}
{"Strand": "AUUGCUAUGGGAUUUCCUGCAGAAAGACUUGAAGGCGUAUACAGGAACAAUAUUGAUGAUGUAGUAAGGUUUUUGGAUUCAAAGCAUAAAAACCAUUACAAGAUAUACAAUCUUUGUGCU", "bound/input enrichment [ratio]": 0.498}
{"Strand": "AAUAUUAAAAAGUCUUCAGGGGCUCCACCUUCAAUGCACAGGGAGGACACCGGUCAGCAUCGGGGAGUCAGCUGCUCUUACGUUUUCAGUGCUGUGUAUCUGAGCCUUGAACGAGUCUCA", "bound/input enrichment [ratio]": 0.201}
{"Strand": "AUGAUGAAGCUCUCAGAAGAAAACCGACACCUGAGAGAUGAAGGCCUAAGGCUCAGAAAGGUAGCACAUUCGGAUAAACCUGGAUCCACCUCAGCCGUGUCCUUCAGAGAUAAUGUCACC", "bound/input enrichment [ratio]": 0.107}
{"data": "Series 3", "target": "Hepatocyte nuclear factor 3-beta, forkhead domain (FOXA2, Homo sapiens, UniProt Q9Y261, residues 142-269)", "technique": "protein-binding microarray", "molecule type": "double-stranded DNA, one strand shown", "sample": "in vitro", "tested at": "not given", "notes": "k-mer, scored over probes, only values ≥0.25", "direction": "higher = stronger binding", "Target sequence (chain)": "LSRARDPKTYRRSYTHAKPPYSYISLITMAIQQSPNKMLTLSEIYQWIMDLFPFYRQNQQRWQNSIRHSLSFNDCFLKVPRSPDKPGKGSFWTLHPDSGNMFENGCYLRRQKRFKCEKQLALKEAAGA"}
{"Strand": "TACAACAA", "E-score": 0.309}
{"Strand": "ATGTCACA", "E-score": 0.317}
{"Strand": "GGGATACA", "E-score": 0.253}
{"Strand": "CTATATTA", "E-score": 0.327}
{"Strand": "ATTTTACC", "E-score": 0.258}
{"Strand": "CTATGCAA", "E-score": 0.261}
{"Strand": "CTGTGTAA", "E-score": 0.261}
{"Strand": "CTACACTA", "E-score": 0.284}
{"data": "Single results of other studies"}
{"SMILES": "FC(F)(F)c1ccc2c(c1)nc(-c1cccnc1)n2C1CC1", "target": "Tyrosine-protein kinase CSK (CSK, Homo sapiens, UniProt P41240)", "assay": "cell-free assay, competition with immobilised ligand", "setting": "1 µM", "quantity": "remaining binding", "value": "100%"}
{"note": "Repeated from above (series 2):"}
{"Strand": "CCUGAUACUUUGGAUCCAGCACUGAUGAGGCCAGGGAGAUUGGAUAGAAAAAUUGAAUUUAGCUUGCCCGAUCUAGAGGGUCGGACCCACAUAUUUAAGAUUCACGCUCGUUCAAUGAGU", "bound/input enrichment [ratio]": 2.11}
{"Strand": "GUCAUAGUUUUUUUUAUGACUACUUCUAGUGUAUAUUCUAAUUUCUUUUCUAGGCCUGAAUGUAUCUUUAUUUUCAUGUUAUAGGACAAUAUUAAGGCAUUUUAAAGGUCAUCAUCCUUU", "bound/input enrichment [ratio]": 44.2}
